{"data": "Measurements collected from several papers", "note": "Numbered parts are unrelated; each lists some results of a single study."}
{"data": "Sample 1", "observed": "AlphaScreen signal", "technique": "AlphaScreen counter screen", "medium": "His6 peptide without bromodomain", "concentration": "50 µM", "notes": "assay interference check"}
{"Structure (SMILES)": "Cn1c(Nc2ccc(C(F)(F)F)cc2)nc2cc(Oc3ccnc(-c4ncc(C(F)(F)F)[nH]4)c3)ccc21", "inhibition [%]": 32.2}
{"Structure (SMILES)": "COc1cccc(NC(=O)c2c(O)c3ccccc3[nH]c2=O)c1", "inhibition [%]": 15.7}
{"Structure (SMILES)": "CN(C)CCCn1cc(C2=C(c3c[nH]c4ccccc34)C(=O)NC2=O)c2ccccc21.Cl", "inhibition [%]": 86.1}
{"data": "Sample 2", "host": "mouse", "medium": "microsomes or S9", "concentration": "2 µM", "time": "0.5 h"}
{"SMILES": "CCOc1ccccc1CN1CCN(Cc2c[nH]c3nccnc23)C(C)C1 (stereo not shown)", "remaining compound": "2.87%"}
{"SMILES": "CCc1nc(C)sc1CNC(=O)Nc1ccc2c(cnn2C)c1", "remaining compound": "64.7%"}
{"SMILES": "Nc1cc(O)nc2nnc(SCc3nnnn3-c3ccc(Cl)c(Cl)c3)n12", "remaining compound": "89.8%"}
{"SMILES": "Cc1ccc(C2=C(c3ccccc3)c3cc(OCCN4CCN(S(C)(=O)=O)CC4)ccc3C2=O)cc1", "remaining compound": "46.6%"}
{"data": "Sample 3", "cell line": "mouse MPNST tumor cells", "technique": "high-content nuclear imaging", "item": "cell number", "concentration": "10 µM", "time": "12 h", "notes": "mean of 2 replicates", "relative to": "plate mean", "direction": "higher = more cells"}
{"Structure (SMILES)": "Cc1ccc(C(=O)COC(=O)c2cccc(NC(=O)c3ccc([N+](=O)[O-])cc3[N+](=O)[O-])c2)cc1", "nuclei count": "2.36 z-score"}
{"Structure (SMILES)": "CN[C@H]1CC[C@@H](c2ccc(Cl)c(Cl)c2)c2ccccc21", "nuclei count": "-5.69 z-score"}
{"Structure (SMILES)": "Cc1noc(NS(=O)(=O)c2cccc3c(N(C)C)cccc23)c1C", "nuclei count": "0.00915 z-score"}
{"data": "Sample 4", "target": "Beta-2 adrenergic receptor (ADRB2, Homo sapiens, UniProt P07550)", "observed": "ligand displacement", "concentration": "10 µM", "sequence of UniProt P07550 (whole entry, looked up)": "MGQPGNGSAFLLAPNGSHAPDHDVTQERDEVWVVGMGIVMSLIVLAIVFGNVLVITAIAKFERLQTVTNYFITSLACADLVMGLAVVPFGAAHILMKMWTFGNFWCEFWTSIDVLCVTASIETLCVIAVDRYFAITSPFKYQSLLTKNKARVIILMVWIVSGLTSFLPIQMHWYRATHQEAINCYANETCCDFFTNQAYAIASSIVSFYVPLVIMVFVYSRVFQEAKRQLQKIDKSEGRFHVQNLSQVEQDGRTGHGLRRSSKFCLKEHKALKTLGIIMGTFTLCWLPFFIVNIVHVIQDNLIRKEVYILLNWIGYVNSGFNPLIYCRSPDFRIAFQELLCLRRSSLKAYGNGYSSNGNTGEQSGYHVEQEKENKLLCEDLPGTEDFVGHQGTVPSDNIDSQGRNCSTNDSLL"}
{"Structure (SMILES)": "COc1cc(-c2cn(C3CCc4c(F)cccc4N(CC(F)(F)F)C3=O)nn2)ccc1-n1cnc(C)c1 (stereo not shown)", "inhibition [%]": -5.61}
{"Structure (SMILES)": "Nc1cnc(N2CCc3cc(S(=O)(=O)Nc4c(F)cc(Cl)cc4F)cc(N4CCCC4=O)c32)nc1", "inhibition [%]": -3.08}
{"Structure (SMILES)": "c1ccc(C2CCN(c3cnc4c(N5CCOCC5)nccn34)CC2)cc1", "inhibition [%]": 8.86}
{"Structure (SMILES)": "Cc1ncc(-c2cc(Cl)ccc2F)cc1-n1c(=O)n(CC(N)=O)c2ccccc21", "inhibition [%]": 16.7}
{"Structure (SMILES)": "CNC(=N)NCCC[C@H](NC(=O)[C@H](CC(C)C)NC(=O)NNC(=O)[C@H](Cc1ccccc1)NC(=O)[C@H](CO)NC(=O)[C@H](CC(N)=O)NC(=O)[C@@H](Cc1ccncc1)NC(=O)[C@H](N)Cc1ccc(O)cc1)C(=O)N[C@@H](Cc1ccccc1)C(N)=O", "inhibition [%]": 1.39}
{"Structure (SMILES)": "O=c1nc(-c2ccccn2)sc2ccccc12", "inhibition [%]": -12.9}
{"Structure (SMILES)": "Cc1ccc(-c2cnc([C@@]3(O)CC[C@H](C(=O)O)C(C)(C)C3)s2)cc1Nc1cccc(C(F)(F)F)n1", "inhibition [%]": 1.6}
{"Structure (SMILES)": "CN([C@@H]1CCc2c(CC(=O)O)c3ccccc3n2C1)S(=O)(=O)c1ccc(F)cc1", "inhibition [%]": -7.68}
{"Structure (SMILES)": "CCC(F)(F)c1cc(N2CCC(S(C)(=O)=O)CC2)nc2sc(C(N)=O)c(N)c12", "inhibition [%]": 8.96}
{"Structure (SMILES)": "NS(=O)(=O)c1cc(NC(=O)Cc2ccccc2)ccc1Oc1cccc(Cl)c1", "inhibition [%]": 18.9}
{"Structure (SMILES)": "O=S(=O)(NC1CCC(c2cc(F)ccc2F)(S(=O)(=O)c2ccc(Cl)cc2)CC1)C(F)(F)F (stereo not shown)", "inhibition [%]": 9.91}
{"data": "Mixed results"}
{"Structure (SMILES)": "CC(C)n1cnc(-c2ccc(F)cc2)c1-c1ncc(C(=O)Nc2ccc(N3CCN(C)CC3)cc2)[nH]1", "host": "human, idiopathic pulmonary fibrosis", "route": "oral", "dose": "60 mg once daily", "notes": "trial, treatment-emergent", "quantity": "patients with oral herpes", "result": "0%"}
{"note": "For quick reference, copied from above (sample 2):"}
{"SMILES": "CCOc1ccccc1CN1CCN(Cc2c[nH]c3nccnc23)C(C)C1 (stereo not shown)", "remaining compound": "2.87%"}
{"SMILES": "Nc1cc(O)nc2nnc(SCc3nnnn3-c3ccc(Cl)c(Cl)c3)n12", "remaining compound": "89.8%"}
